Published values of several laboratories.
Compare with care: the assays were run in different laboratories. “And” joins repeats or separate records; there may be more than shown. ± gives the spread as reported.

Cc1cc(Cl)cc(-c2ccnc3cc(CN4C(=O)C5C(C4=O)C5(C)C)sc23)c1C[C@@H]1CNCCO1 (stereo partly drawn) — cells in G2/M phase (CHP-212 resistant cells (pooled); PI flow cytometry; 1 µM, 24 h): 15.5% and 9.34% and 14.2%
O=C(N/N=C/c1ccc(C[n+]2ccccc2)cc1)c1cc(C(=O)N/N=C/c2ccc(C[n+]3ccccc3)cc2)ncn1 — ΔTm (22CTA telomeric G4-DNA antiparallel; FRET melting; 1 µM, K10 buffer, DNA 0.2 µM, with: ds26 10 µM): 3.6 ± 0.7 °C
C[C@@H]1CC[C@@H]([C@](O)(COCc2ccccc2)Cn2cnc3ccccc32)[C@H](OCc2ccccc2)C1 — inhibition (HeLa; cell growth or viability, MTT; 30 µM, 72 h): 95.4%
CC[C@H](NC(=O)[C@H](CC(C)C)NC(=O)[C@H](CC(=O)O)NC(C)=O)C(=O)N[C@@H](CC(=O)O)C(=O)COC(=O)c1c(C)cccc1C — cell lysis (THP-1 cells, LPS-primed; pyroptosis, LDH release; 25 µM, LPS 1 µg/mL, 4 h, with: nigericin 5 µM, 2 h): 89%
C=CCc1c(O)cc2c(c1O)C(=O)CC(c1ccc(O)cc1)O2 (stereo not drawn) — inhibition (HeLa; cell growth or viability, MTT; 100 µM, 48 h): 31.4%
COC1CCN(C(=O)/C=C/c2nn(Cc3cccc(C(F)(F)F)c3)c3nc(N)ncc23)CC1 — EC50 (OE33; cell growth or viability, resazurin; 5 days): 1.76 µM
CCN(CC)CC(=O)Nc1cccc(-n2cc(-c3ccc4ccc(-c5cn(-c6cccc(NC(=O)CN(CC)CC)c6)nn5)cc4c3)nn2)c1 — fold regulation (RCC4; PCR angiogenesis array, refers to: TGFB1; 5 x IC50, 6 h, normoxia; reference: untreated): -1.39 fold
O=S(=O)(N[C@H]1CCO[C@@H](C2c3ccccc3CCc3ccccc32)C1)c1ccc(OC(F)(F)F)cc1 — Bad phosphorylation (D341; immunoblot; concentration not given, 72 h): decreased
CC12CCCC(n3cc(C(=O)N4CCC(N)CC4)nn3)(C1)C1CC(C)(C)C1CC2 (stereo not drawn) — inhibition (HT-29; cell growth or viability, CCK-8; 50 µM): 83.7%
CNS(=O)(=O)Nc1nccc(Cc2c(C)c3ccc(Oc4ncccc4F)cc3oc2=O)c1F — IC50 (NCI-H196; cell viability; 7 days): > 1 µM
O=C(C[Se]C(=O)c1cc2ccccc2[nH]1)Nc1cccc(C(F)(F)F)c1 — mean growth percent (NCI60 leukemia subpanel; cell growth; 10 µM, 48 h, one-dose): -81.6%
CCN(C(=O)c1cc(F)ccc1Oc1nncnc1N1CCC2(C1)CN([C@H](CCCN(C)CCOC)C(C)C)C2)C(C)C — GI50 (MG-63; cell growth or viability; 7 days): > 10 µM
Cc1ncsc1-c1ccc(C(C)NC(=O)C2CC(O)CN2C(=O)C(NC(=O)CCCCCCCCCCN2CCCC(Nc3ncc(Cl)c(Nc4ccccc4S(=O)(=O)C(C)C)n3)C2)C(C)(C)C)cc1 (stereo not drawn) — log2 fold change (22Rv1; RNA-seq, refers to: TIGD7 mRNA; concentration not given; reference: DMSO): -1.29
C=CC(=O)Nc1cccc(Cn2ncc3cnc(Nc4cnn(CCOC)c4)nc32)c1 — binding (human ABL1(E255K)-phosphorylated; KINOMEscan; 100 nM; reference: control): 6.1%
Cc1ccc(-c2ccc(C3CCCCC3)cc2)cn1 — hepatic clearance (liver microsome stability; mouse liver microsomes; 1 µM): 76 mL/min/kg
CC(C)c1ccc(N(C)c2ccc3c(c2)OCC[C@H]3CNc2cnccc2C(=O)O)cc1 — IC50 (KYSE-150 overexpressing KDM4C; histone demethylation, HTRF, refers to: H3K36me3; 24 h): 0.0004 µM
C[n+]1ccc(/C=N/NC(=O)N/N=C/c2cc[n+](C)c3ccccc23)c2ccccc21 — ΔTm (22CTA telomeric G4-DNA antiparallel; FRET melting; 1 µM, K10 buffer, DNA 0.2 µM): 6 ± 0.9 °C
C=CC(=O)N1CCCC(n2c(=O)c3ncccc3n(Cc3ccc(Oc4ccccc4)cc3)c2=O)C1 (stereo not drawn) — annexin V/PI cells (OCI-LY19; annexin V/PI flow cytometry; 100 nM, 72 h, Q1 quadrant): 0.36%
CC12CCCC(NS(=O)(=O)c3ccccn3)(C1)C1CC(C)(C)C1CC2 (stereo not drawn) — inhibition (HT-29; cell growth or viability, CCK-8; 10 µM): < 50%
CC(C)CC(=O)Nc1ccc([C@H]2[C@@H](F)[C@@H](F)C[C@@H](F)[C@H]2F)cc1 — hepatic clearance (liver microsome stability; mouse liver microsomes; 1 µM): 42 mL/min/kg
CN1CCCNC(=O)c2cccc(c2)C(=O)NCCCN(C)CCCNc2cccc3c2C(=O)c2cccc(c2C3=O)NCCC1 — log2 fold change (SAS; RNA-Seq, refers to: PNN mRNA; 1 µM, 6 h; reference: untreated cells): -0.608

Excerpt of the above:
C=CC(=O)N1CCCC(n2c(=O)c3ncccc3n(Cc3ccc(Oc4ccccc4)cc3)c2=O)C1 (stereo not drawn) — annexin V/PI cells (OCI-LY19; annexin V/PI flow cytometry; 100 nM, 72 h, Q1 quadrant): 0.36%
CCN(C(=O)c1cc(F)ccc1Oc1nncnc1N1CCC2(C1)CN([C@H](CCCN(C)CCOC)C(C)C)C2)C(C)C — GI50 (MG-63; cell growth or viability; 7 days): > 10 µM
O=C(C[Se]C(=O)c1cc2ccccc2[nH]1)Nc1cccc(C(F)(F)F)c1 — mean growth percent (NCI60 leukemia subpanel; cell growth; 10 µM, 48 h, one-dose): -81.6%
